# Published values gathered from unrelated publications.
# Numbered parts are unrelated; each lists some results of a single study. Positions count from the first letter of the parent shown.
# Sequence of UniProt P08588 (whole entry, looked up): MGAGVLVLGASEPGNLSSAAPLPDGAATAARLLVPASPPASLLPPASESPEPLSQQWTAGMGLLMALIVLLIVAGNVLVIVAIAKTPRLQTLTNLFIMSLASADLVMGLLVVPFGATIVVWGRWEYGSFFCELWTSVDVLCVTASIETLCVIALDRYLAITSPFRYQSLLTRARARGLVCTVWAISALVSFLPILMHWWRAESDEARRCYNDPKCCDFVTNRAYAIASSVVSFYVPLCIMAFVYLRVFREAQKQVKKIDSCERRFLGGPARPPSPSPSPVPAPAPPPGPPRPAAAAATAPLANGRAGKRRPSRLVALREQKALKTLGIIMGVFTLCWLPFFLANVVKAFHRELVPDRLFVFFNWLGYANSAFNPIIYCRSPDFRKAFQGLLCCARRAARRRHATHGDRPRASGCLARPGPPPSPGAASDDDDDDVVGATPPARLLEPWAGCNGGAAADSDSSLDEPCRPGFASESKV

# Block 1 — target: vanadate, free oxyanion; technique: microfluidic competitive inhibition; sample: in vitro, cell-free expressed; concentration: not given; reading: lower = stronger binding
# Notes: derived from inhibition constants, unchanged parent 676 nM
# Starting sequence: PafA, mature enzyme, eGFP fusion (Elizabethkingia meningoseptica, UniProt Q9KJX5); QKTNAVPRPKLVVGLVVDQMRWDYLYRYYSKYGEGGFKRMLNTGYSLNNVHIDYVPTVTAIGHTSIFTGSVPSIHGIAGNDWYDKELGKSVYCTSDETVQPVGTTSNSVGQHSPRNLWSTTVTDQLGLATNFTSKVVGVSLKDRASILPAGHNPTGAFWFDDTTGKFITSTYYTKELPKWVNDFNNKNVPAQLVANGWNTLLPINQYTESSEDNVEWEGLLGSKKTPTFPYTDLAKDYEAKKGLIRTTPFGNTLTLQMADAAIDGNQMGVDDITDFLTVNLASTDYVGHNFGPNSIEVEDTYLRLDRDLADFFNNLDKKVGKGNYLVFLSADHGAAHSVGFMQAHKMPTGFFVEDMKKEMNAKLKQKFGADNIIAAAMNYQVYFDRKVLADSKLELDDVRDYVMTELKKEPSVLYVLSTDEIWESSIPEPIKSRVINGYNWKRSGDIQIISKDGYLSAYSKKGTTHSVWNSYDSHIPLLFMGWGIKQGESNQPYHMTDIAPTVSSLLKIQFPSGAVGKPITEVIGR
Variant,oxyanion analog dissociation constant
N188V,545 nM
K387V,1.01 µM
I476V,754 nM
N470G,590 nM
L15V,1.01 µM
L394G,835 nM
V91G,1.75 µM
V17A,636 nM

# Block 2 — target: CCNF, cyclin fold, Cln2 fusion (human); technique: yeast growth competition, sequencing; sample: yeast; notes: strong parent motif; reference: not given; reading: higher = stronger binding; starting sequence: viral docking peptide; KGVKRKLFAEDSS
Variant,normalised enrichment score
F8K,0.976
K4V,7.83
E10I,7.55
R5D,0.471
V3W,2.99
R5F,0.512
L7T,0.629
S12T,7.99

# Other studies, line by line
Molecule,target or system,mode,technique,together with,endpoint,value
CC(Cc1ccncc1)NCc1ccc(OCC(=O)N2CCOCC2)cc1 (stereo not drawn),"ADRB1 (Homo sapiens, UniProt P08588)",antagonist,,,IC50,11.2 µM
"SARS1 (Homo sapiens, UniProt P49591)","BLTP3A (Homo sapiens, UniProt Q6BDS2)",,cross-linking MS,DSSO,cross-linked residues,K116 to S746

# A few entries again (block 1):
Variant,oxyanion analog dissociation constant
L15V,1.01 µM
